{"data": "Experimental data of several laboratories", "route": "intravenous", "note": "Lines come from different studies, so protocols differ."}
{"SMILES": "C=C(C)C(=O)Nc1ccc(-c2c(-c3ccc(Oc4nccc(C)n4)cc3)c3c(N)ncnc3n2C)cc1", "species": "Sprague-Dawley rat", "sample": "plasma", "Vd": "0.98 L/kg"}
{"SMILES": "CSCOC1C(=O)C2(C)C(OCSC)CC3OCC3(OC(C)=O)C2C(OC(=O)c2ccccc2)C2(O)CC(OC(=O)C(O)C(C=C(C)C)NC(=O)OC(C)(C)C)C(C)=C1C2(C)C (centres unmarked)", "species": "female Sprague-Dawley rat", "sample": "plasma", "dose": "1 mg/kg", "Vd": "68.5 L/kg"}
{"SMILES": "CC12CC3CC(C)(C1)CC(NC(=O)Nc1ccc(C(=O)N4CCCC(C(N)=O)C4)cc1)(C3)C2 (centres unmarked)", "species": "Sprague-Dawley rat", "sample": "plasma", "dose": "10 mg/kg", "Vd": "3.48 L"}
{"SMILES": "CCCN(c1ccc(C(=O)NCCC(=O)O)cc1)S(=O)(=O)c1cc(C)c(-c2ccc(C(C)(C)C)cc2)c(C)c1", "species": "rat", "sample": "plasma", "dose": "2 mg/kg", "Vd": "0.371 L/kg"}
{"SMILES": "COc1ccc2c(c1OCc1ccccc1)C[C@@H](C(=O)O)N(c1nc3ccc(C#N)cc3o1)C2", "species": "male Sprague-Dawley rat", "sample": "plasma", "dose": "1 mg/kg", "Vd": "0.21 L/kg"}
{"SMILES": "COCCCN1CCc2c(Cc3ccc(Cl)cc3)[nH]c3c(OC(F)F)ccc(c23)C1=O", "species": "male Sprague-Dawley rat", "sample": "blood", "dose": "2.5 mg/kg", "Vd": "4.92 L/kg"}
{"SMILES": "CC1(C)CNC(=O)c2ccccc21", "species": "rat", "sample": "plasma", "dose": "1 mg/kg", "notes": "single dose", "Vd": "1.8 L/kg"}
{"SMILES": "Cc1ccc(OCC(=O)N(Cc2cccs2)c2ccn[nH]2)cc1", "species": "male Sprague-Dawley rat", "sample": "plasma", "dose": "1 mg/kg", "notes": "single dose", "Vd": "1.81 L/kg"}
{"SMILES": "N=C(N)NCCC[C@H](NC(=O)[C@@H]1CCCN1C(=O)[C@H](Cc1ccccc1)NC(=O)[C@@H]1CCCN1C(=O)[C@H](Cc1c[nH]cn1)NC(=O)[C@@H](N)Cc1ccccc1)C(=O)O", "species": "rat", "sample": "plasma", "dose": "10 mg/kg", "Vd": "72 L/kg"}
{"SMILES": "N[C@H](COc1ccccc1C(F)(F)F)c1ccccc1", "species": "rat", "sample": "plasma", "dose": "5 mg/kg", "Vd": "54.6 L/kg"}
{"SMILES": "COc1cc2ncnc(Oc3ccc(Nc4nccc5[nH]cc(-c6ccc(F)cc6)c(=O)c45)cc3F)c2cc1OC", "species": "male Sprague-Dawley rat", "sample": "plasma", "dose": "5 mg/kg", "Vd": "0.3 L/kg"}
{"SMILES": "CC(C)(C)C(=O)Nc1ccc2[nH]c(CN3CCC(N(CCCN4CCOCC4)CC4OC(n5cnc6c(N)ncnc65)C(O)C4O)CC3)nc2c1 (centres unmarked)", "species": "male Sprague-Dawley rat", "sample": "plasma", "dose": "20 mg/kg", "Vd": "7.59 L/kg"}
{"SMILES": "COc1ccc(COc2c(OC)ccc3c2C[C@@H](C(=O)O)N(c2nc4ccc(F)cc4o2)C3)cc1", "species": "male Sprague-Dawley rat", "sample": "plasma", "dose": "1 mg/kg", "Vd": "0.37 L/kg"}
{"SMILES": "COC(=O)c1ccc2c(c1)NC(=O)/C2=C(\\Nc1ccc2c(c1)CCN2C(=O)CN1CCOCC1)c1ccccc1", "species": "Sprague-Dawley rat", "sample": "blood", "dose": "2 mg/kg", "Vd": "1.38 L/kg"}
{"note": "Repeated from above:"}
{"SMILES": "Cc1ccc(OCC(=O)N(Cc2cccs2)c2ccn[nH]2)cc1", "species": "male Sprague-Dawley rat", "sample": "plasma", "dose": "1 mg/kg", "notes": "single dose", "Vd": "1.81 L/kg"}
{"SMILES": "N=C(N)NCCC[C@H](NC(=O)[C@@H]1CCCN1C(=O)[C@H](Cc1ccccc1)NC(=O)[C@@H]1CCCN1C(=O)[C@H](Cc1c[nH]cn1)NC(=O)[C@@H](N)Cc1ccccc1)C(=O)O", "species": "rat", "sample": "plasma", "dose": "10 mg/kg", "Vd": "72 L/kg"}
